Experimental data from different studies.
Each numbered part is a random draw from the data of one study; scales do not carry over between parts. pIC50: −log10 of the molar value.
Sequence of UniProt Q5XXA6 (whole entry, unmodified, looked up): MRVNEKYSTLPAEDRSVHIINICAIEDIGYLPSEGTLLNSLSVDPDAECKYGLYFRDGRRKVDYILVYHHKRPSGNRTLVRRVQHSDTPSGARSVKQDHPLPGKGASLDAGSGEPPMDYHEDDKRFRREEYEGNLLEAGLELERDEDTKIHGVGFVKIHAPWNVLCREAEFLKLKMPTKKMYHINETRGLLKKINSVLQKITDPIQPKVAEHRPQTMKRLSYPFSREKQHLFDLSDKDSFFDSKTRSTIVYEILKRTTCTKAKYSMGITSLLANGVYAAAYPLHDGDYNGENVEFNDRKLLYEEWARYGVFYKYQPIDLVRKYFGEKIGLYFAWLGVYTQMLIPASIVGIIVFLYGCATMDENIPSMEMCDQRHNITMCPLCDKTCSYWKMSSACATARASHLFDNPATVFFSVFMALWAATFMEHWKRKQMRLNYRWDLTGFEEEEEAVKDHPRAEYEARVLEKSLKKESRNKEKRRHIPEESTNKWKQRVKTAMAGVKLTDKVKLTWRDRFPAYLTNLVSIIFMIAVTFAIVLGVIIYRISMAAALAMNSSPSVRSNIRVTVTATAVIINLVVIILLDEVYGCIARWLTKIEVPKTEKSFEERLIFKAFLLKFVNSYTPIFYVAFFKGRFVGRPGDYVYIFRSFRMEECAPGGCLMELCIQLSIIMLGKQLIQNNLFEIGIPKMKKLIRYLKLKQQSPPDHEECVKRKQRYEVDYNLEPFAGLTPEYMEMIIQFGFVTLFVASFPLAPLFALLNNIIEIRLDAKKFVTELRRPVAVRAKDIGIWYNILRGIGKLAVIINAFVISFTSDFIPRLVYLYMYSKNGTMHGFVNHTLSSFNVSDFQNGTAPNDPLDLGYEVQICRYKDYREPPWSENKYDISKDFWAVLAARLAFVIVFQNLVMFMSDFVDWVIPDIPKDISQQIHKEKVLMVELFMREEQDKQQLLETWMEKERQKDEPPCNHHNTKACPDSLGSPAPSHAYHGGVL
Sequence of UniProt P35968 (whole entry, looked up): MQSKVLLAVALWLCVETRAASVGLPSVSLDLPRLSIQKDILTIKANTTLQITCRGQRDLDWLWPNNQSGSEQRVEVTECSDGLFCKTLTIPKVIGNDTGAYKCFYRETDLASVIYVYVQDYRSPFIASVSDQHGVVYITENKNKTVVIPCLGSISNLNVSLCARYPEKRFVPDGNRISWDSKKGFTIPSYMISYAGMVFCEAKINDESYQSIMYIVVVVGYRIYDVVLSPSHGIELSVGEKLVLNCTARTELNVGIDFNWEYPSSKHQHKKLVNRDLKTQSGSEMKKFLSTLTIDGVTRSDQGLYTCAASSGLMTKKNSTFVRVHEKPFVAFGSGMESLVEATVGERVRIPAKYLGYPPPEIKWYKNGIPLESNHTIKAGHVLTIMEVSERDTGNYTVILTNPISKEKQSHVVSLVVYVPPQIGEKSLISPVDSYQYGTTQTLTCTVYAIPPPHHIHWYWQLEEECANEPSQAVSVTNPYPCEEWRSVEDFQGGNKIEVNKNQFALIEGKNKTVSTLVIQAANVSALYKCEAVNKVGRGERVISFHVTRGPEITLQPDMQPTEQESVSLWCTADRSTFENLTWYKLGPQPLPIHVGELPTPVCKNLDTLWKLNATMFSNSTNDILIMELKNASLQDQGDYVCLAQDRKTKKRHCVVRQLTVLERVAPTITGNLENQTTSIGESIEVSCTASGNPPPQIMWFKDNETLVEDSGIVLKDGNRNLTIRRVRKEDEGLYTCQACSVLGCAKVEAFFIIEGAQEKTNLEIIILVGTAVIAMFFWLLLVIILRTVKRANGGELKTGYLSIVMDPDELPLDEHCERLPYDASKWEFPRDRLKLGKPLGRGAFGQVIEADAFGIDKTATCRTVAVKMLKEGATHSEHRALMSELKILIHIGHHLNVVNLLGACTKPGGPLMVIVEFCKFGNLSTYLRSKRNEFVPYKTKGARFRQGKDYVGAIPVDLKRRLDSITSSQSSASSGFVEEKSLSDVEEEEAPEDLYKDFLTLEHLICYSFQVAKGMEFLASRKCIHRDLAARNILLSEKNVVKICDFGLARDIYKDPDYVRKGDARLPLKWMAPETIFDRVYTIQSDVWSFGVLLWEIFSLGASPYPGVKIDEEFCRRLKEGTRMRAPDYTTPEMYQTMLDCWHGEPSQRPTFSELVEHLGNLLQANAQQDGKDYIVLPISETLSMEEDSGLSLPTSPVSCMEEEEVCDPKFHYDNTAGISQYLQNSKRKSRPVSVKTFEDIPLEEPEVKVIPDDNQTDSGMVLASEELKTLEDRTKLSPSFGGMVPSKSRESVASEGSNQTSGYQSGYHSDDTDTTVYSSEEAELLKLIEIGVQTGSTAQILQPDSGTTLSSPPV
Sequence of UniProt Q13557 (whole entry, looked up): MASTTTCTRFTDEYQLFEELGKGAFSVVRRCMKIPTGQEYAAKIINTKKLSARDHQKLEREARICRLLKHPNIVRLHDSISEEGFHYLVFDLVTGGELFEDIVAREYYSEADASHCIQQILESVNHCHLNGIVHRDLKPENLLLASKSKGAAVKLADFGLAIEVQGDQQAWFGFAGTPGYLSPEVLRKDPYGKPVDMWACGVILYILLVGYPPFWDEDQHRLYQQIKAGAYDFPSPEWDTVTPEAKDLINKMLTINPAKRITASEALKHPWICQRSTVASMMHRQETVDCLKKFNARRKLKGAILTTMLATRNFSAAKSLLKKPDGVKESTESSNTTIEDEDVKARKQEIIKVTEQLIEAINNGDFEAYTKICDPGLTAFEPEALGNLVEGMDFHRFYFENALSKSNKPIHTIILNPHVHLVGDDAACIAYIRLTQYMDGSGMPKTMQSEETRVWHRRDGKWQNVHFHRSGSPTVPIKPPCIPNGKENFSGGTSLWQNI
Sequence of UniProt Q59H18 (whole entry, looked up): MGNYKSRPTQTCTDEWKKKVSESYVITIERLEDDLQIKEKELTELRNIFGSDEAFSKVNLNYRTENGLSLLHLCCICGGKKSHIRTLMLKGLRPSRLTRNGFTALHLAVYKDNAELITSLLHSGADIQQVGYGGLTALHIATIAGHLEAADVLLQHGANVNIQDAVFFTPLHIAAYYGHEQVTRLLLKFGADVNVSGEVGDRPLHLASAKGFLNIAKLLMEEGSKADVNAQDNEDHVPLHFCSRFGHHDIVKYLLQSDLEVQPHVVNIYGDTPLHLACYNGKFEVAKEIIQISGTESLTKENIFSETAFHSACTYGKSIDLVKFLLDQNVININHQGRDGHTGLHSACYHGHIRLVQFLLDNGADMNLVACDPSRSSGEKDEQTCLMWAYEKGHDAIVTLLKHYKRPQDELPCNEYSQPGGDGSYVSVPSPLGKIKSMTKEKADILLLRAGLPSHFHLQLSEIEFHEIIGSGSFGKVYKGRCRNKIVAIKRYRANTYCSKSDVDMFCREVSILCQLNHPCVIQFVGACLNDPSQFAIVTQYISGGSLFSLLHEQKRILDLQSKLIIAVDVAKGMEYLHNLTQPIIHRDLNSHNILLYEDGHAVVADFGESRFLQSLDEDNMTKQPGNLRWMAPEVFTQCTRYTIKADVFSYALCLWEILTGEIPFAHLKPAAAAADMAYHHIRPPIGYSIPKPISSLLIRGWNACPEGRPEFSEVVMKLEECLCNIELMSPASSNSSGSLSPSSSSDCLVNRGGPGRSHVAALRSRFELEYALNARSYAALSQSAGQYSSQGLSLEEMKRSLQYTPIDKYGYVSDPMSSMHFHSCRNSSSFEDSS
Sequence of UniProt Q8WU08 (whole entry, looked up): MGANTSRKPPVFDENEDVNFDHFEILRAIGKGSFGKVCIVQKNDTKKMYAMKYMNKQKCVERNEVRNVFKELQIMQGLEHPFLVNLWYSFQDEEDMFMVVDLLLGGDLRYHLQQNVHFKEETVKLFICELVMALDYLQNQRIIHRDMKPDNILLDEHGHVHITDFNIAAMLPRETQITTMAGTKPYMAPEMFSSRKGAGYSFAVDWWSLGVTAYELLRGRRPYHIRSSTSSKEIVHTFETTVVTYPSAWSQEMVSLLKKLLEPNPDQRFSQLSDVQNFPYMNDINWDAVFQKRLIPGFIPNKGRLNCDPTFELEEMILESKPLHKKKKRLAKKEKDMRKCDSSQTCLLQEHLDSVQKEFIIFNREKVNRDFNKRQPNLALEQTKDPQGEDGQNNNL
Sequence of UniProt P49137 (whole entry, looked up): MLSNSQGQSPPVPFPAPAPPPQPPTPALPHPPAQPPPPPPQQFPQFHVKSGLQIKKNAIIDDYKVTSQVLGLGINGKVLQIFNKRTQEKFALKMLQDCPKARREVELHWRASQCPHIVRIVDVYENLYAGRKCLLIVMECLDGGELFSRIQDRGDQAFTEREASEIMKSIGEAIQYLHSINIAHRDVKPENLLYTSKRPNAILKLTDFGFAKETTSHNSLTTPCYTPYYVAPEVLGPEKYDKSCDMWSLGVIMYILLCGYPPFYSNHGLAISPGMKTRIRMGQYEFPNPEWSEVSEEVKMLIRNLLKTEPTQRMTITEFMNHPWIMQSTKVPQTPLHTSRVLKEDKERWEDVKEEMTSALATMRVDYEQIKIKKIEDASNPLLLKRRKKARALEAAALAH

Sample 1
SMILES: C=CCc1ccc(O)c(-c2ccc(O)c(CC=C)c2)c1
Read-out: chloride current
Technique: whole-cell voltage clamp
Quantity: pIC50
target = Anoctamin-1 (ANO1, Homo sapiens, UniProt Q5XXA6, del476-501/F803A); setting = membrane voltage 60 mV; value = 4.93
target = Anoctamin-1 (ANO1, Homo sapiens, UniProt Q5XXA6, del476-501/R631K); test = inhibitor; setting = R605K mutant at -60 mV; value = 4.95
target = Anoctamin-1 (ANO1, Homo sapiens, UniProt Q5XXA6, D383A/del476-501); test = inhibitor; setting = pore pocket mutant D383A at 100 mV, together with: 300 nM Ca2+; value = 5.31
target = Anoctamin-1 (ANO1, Homo sapiens, UniProt Q5XXA6, del476-501/F628Y); test = inhibitor; setting = 60 mV holding voltage; value = 4.64
target = Anoctamin-1 (ANO1, Homo sapiens, UniProt Q5XXA6, del476-501/R631I); test = inhibitor; setting = R605I mutant at 100 mV; value = 4.49

Sample 2
SMILES: Cc1cc(NC(=O)c2cccc(S(F)(F)(F)(F)F)c2)cc(-n2ccn3nc(-c4cccnc4)cc23)c1
Read-out: cell-free assay
Technique: competition with immobilised ligand
Concentration: 1 µM
Quantity: remaining binding
target = TNNI3K (Homo sapiens, UniProt Q59H18); value = 100%
target = CAMK2D (Homo sapiens, UniProt Q13557); value = 80%
target = EPHB2 (Homo sapiens, UniProt P29323); value = 100%
target = NEK6 (Homo sapiens, UniProt Q9HC98); value = 97%
target = CAMK4 (Homo sapiens, UniProt Q16566); value = 80.5%
target = EGFR (Homo sapiens, UniProt P00533, del747-752/P753S); value = 100%
target = DSTYK (Homo sapiens, UniProt Q6XUX3); value = 72.8%
target = MAPKAPK2 (Homo sapiens, UniProt P49137); value = 100%
target = KDR (Homo sapiens, UniProt P35968); value = 68.3%
target = FER (Homo sapiens, UniProt P16591); value = 59.4%
target = PDGFRB (Homo sapiens, UniProt P09619); value = 100%
target = FLT3 (Homo sapiens, UniProt P36888, K663Q); value = 100%
target = ACVR2A (Homo sapiens, UniProt P27037); value = 100%
target = PAK1 (Homo sapiens, UniProt Q13153); value = 90.9%
target = STK32A (Homo sapiens, UniProt Q8WU08); value = 100%
target = CDK2 (Homo sapiens, UniProt P24941); value = 100%
target = FLT3 (Homo sapiens, UniProt P36888, D835Y); value = 100%
target = DCLK2 (Homo sapiens, UniProt Q8N568); value = 100%

Sample 3
Target: Beta-1 adrenergic receptor (ADRB1, Homo sapiens, UniProt P08588)
Sequence of UniProt P08588 (whole entry, looked up): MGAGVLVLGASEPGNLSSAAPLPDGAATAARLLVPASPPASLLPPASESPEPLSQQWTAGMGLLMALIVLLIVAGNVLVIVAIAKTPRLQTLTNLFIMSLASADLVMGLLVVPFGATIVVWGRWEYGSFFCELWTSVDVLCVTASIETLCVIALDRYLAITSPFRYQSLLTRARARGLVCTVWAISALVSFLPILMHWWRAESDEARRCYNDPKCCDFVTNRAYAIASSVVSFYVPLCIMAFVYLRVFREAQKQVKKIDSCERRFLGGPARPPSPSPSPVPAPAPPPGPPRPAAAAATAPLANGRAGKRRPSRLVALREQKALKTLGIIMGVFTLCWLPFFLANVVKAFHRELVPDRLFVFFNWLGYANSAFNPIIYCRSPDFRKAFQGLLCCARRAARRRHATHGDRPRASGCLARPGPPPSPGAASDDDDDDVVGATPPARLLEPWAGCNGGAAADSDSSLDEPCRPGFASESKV
Mode: antagonist
Quantity: pIC50
SMILES = Cc1ccc2c(CSc3nnnn3Cc3ccco3)cc(=O)oc2c1; value = ≤ 4.00
SMILES = O=C(Nc1ccc(Oc2ccnc3[nH]ccc23)c(F)c1)c1cccn(-c2ccc(F)cc2)c1=O; value = ≤ 4.00
SMILES = OCc1n[nH]c2c1CN(Cc1cccc(OCC(O)CN3CCOCC3)c1)CC2 (stereo not drawn); value = ≤ 4.00
SMILES = c1ccc2nc(C3=NCCN3)ccc2c1; value = ≤ 4.00

Sample 4
Host: mouse
Sample: microsomes or S9
Concentration: 2 µM
Time: 0.5 h
Quantity: remaining compound
Compound = COc1nn(C)c(=O)n1-c1ccccc1NC(=O)c1ccc(Cl)cc1Cl; value = 72.9%
Compound = Cn1c(=O)c2sc3c(c2n(CC(N)=O)c1=O)CCCC3; value = 33.6%
Compound = Nc1nc(N2C(=O)C3CC=CCC3C2=O)nn1-c1ccccc1 (stereo not drawn); value = 75.3%
Compound = COc1cccc(-c2nc3cc(Cl)ccc3c3ccnn23)c1Cl; value = 0.0966%

Sample 5
Organism: Sarcocystis neurona
Read-out: parasite growth
Concentration: 10 µM
Setting: second screen
Relative to: untreated
Quantity: log2 fold change
SMILES = CC1=C(C/C=C(\C)CCC[C@H](C)CCC[C@H](C)CCCC(C)C)C(=O)c2ccccc2C1=O; value = 0.42
SMILES = COc1ccc(CN2CCN(C(c3ccc(F)cc3)c3ccc(F)cc3)CC2)c(OC)c1OC.Cl.Cl; value = -1.07
SMILES = Cl.NC1CCN(c2cccc(Cl)n2)CC1; value = 0.3
SMILES = O=c1[nH]c(=O)n([C@H]2C[C@H](O)[C@@H](CO)O2)cc1F; value = -0.27

Single results of other studies
SMILES = COc1ccc(-c2c(Nc3ccccn3)[nH]c3c(C4=CCCCC4)c(-c4ccccc4)nn3c2=O)cc1; test system = human patients, plasma; setting = oral, 200 mg once daily, day 15, cycle 1, tau 24 h; quantity = AUC(0-tau) geometric mean; value = 108 µg·h/mL

A few entries again (sample 2):
target = KDR (Homo sapiens, UniProt P35968); value = 68.3%
target = FLT3 (Homo sapiens, UniProt P36888, K663Q); value = 100%
target = DSTYK (Homo sapiens, UniProt Q6XUX3); value = 72.8%
target = CAMK4 (Homo sapiens, UniProt Q16566); value = 80.5%
